Measured values gathered from unrelated publications.
Every numbered part comes from another study and shows a few of its results, in no order. Changes are numbered by the printed parent chain.

Sample 1 — target: CCND3, cyclin fold, Cln2 fusion (human); method: yeast growth competition, sequencing; sample: yeast; notes: weak parent motif; reference: not given; direction: higher = stronger binding
Starting sequence: SAMHD1 docking peptide (human); ASKSRVQLFKDDP
| Change | normalised enrichment score |
| --- | --- |
| ASKSRFQLFKDDP [V6F] | 0.27 |
| ASKSRVQLIKDDP [F9I] | 0.0644 |
| AIKSRVQLFKDDP [S2I] | 0.47 |
| ASKSRQQLFKDDP [V6Q] | -0.712 |
| ASKSAVQLFKDDP [R5A] | 0.328 |
| ASNSRVQLFKDDP [K3N] | -0.32 |
| ASKSRVQLFKDFP [D12F] | -0.253 |
| ASKSRVQFFKDDP [L8F] | -0.00701 |
| ASKSRVFLFKDDP [Q7F] | 0.489 |
| ASLSRVQLFKDDP [K3L] | 0.148 |
| ASASRVQLFKDDP [K3A] | 0.217 |
| ASKSRVQTFKDDP [L8T] | 0.303 |
| ASKSRVQLFLDDP [K10L] | 0.161 |
| ASCSRVQLFKDDP [K3C] | 0.251 |
| ASKSRCQLFKDDP [V6C] | 0.0603 |
| ASKSRGQLFKDDP [V6G] | 0.0916 |
| ASKSRVQNFKDDP [L8N] | 0.216 |
| ATKSRVQLFKDDP [S2T] | -0.0795 |
| ASKSRVQLEKDDP [F9E] | -0.0336 |
| ASKSRVILFKDDP [Q7I] | -0.0503 |
| AMKSRVQLFKDDP [S2M] | 0.106 |

Sample 2 — target: BATF3, bZIP domain (human); method: DHFR protein complementation; sample: yeast; reference: wild-type JUN-FOS pair; direction: higher = stronger binding
Notes: single substitutions, most at no-binding floor
Starting sequence: JUN, bZIP domain (human); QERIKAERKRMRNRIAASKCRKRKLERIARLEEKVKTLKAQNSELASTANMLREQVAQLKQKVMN; partner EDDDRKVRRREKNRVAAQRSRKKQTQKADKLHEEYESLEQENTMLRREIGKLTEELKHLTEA
| Change | binding fitness |
| --- | --- |
| L52H | -0.484 natural log |
| M51G | 0.235 natural log |
| A29Y | 0.0862 natural log |
| E44D | 0.046 natural log |
| S43I | 0.198 natural log |
| M51D | 0.264 natural log |
| R30S | 0.311 natural log |
| A57R | 0.171 natural log |
| R30M | 0.198 natural log |
| Q41L | 0.109 natural log |
| N42K | 0.114 natural log |
| T48F | 0.0596 natural log |
| Q41R | 0.201 natural log |
| A49T | 0.0436 natural log |
| V56L | 0.113 natural log |

Sample 3 — method: RNA Bind-n-Seq; form: RNA; sample: in vitro; tested at: 365 nM; reference: no-protein control; direction: higher = stronger binding
Target: RNA binding protein fox-1 homolog 2, RRM domain, GST-SBP tag (RBFOX2, Homo sapiens, UniProt O43251-10, residues 100-194)
Notes: natural RNA segment, single round, ends assumed
Target sequence (chain): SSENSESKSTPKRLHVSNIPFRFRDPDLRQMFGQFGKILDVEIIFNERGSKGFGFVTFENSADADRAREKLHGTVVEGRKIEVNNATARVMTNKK
| Sequence | RBNS enrichment (R) |
| --- | --- |
| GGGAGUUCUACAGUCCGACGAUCGAAUCGUUCUGGUGCCUUAAUGCACAGCUGGAAUUCAGGUAAACACAUCAGCUGUUGCUGGCGGUUGGAAAGGAGGGCAUCUUGGCUGUGUGGCACUUAGUGGUCAGAUUUGGAAUUCUCGGGUGCCAA | 0.456 |
| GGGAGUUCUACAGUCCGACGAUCUCAGAACAGGCAGCUGUUGAGCUCGGGGUGUCUUCCCCAAGGCAUGUGGCUCAGCAGCAAGAAAGGCAAGUUGCUCCUGCUGGGGCCCUGGACUCUGCCUUAGCUCCCACUGGAAUUCUCGGGUGCCAA | 1.66 |
| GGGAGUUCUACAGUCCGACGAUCGGUUGUAUUCAGUAAAAAAGAAUAGUAAAUAUAAGGUCACUGAGAUUCUAAGUAAGAUAGUAAAUCUAAGGUCACUGAGCCAAAUCCUUUUCAAUAGGCAUAUAUUAACAUGGAAUUCUCGGGUGCCAA | 0.424 |
| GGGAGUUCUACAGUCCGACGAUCAAAUGGUGUGGCCCAGGGCCACAUAACAGACUGCUGUCCUGGGCUGCCUCAGGUCCCGAGUAACUUAUGUUCAAUGUGCCAACACCAGUGGGGAGCCCGCAGGCCUAUGUUGGAAUUCUCGGGUGCCAA | 0.426 |
| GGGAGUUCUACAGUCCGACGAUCCCUGACUUCCCUCAGGAAGUCUUUCUGUCUUUCUCCAUCAGUCUGAAAGCCUUAGUUCCCACAGAGGACGGAUCUGUCACUCCUAGGGGCUGGGCAUAUGUCGGCCUCUUUGGAAUUCUCGGGUGCCAA | 0.188 |
| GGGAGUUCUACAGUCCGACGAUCCUCUUUGGUCCUACCCGCUUCCCAUCACCGGAGGAGCUUCCCCGGCCGGGAGACCAGUGUUAGAGGAUCCAAGCGACCUAAACAGCUGCUUUAUGAAAUAUCCUUACUUUUGGAAUUCUCGGGUGCCAA | 0.461 |
| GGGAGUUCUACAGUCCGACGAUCCUGUUAAUAUGGACUUGGACUAGAUAACCUUAAAUUGGCCUAUUCCUUCAAUUAAUAAAAUAUUUUUGCCAUAGUAUGUGACUCUACAUAACAUACUGAAACUAUUUAUAUGGAAUUCUCGGGUGCCAA | 0.292 |
| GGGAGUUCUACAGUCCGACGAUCUUAACUGUGAAUUCACCCCUCCUCCUCCACUGCAUAUUUAAAGCAUGUGUUCACACUGUGUGUAAACAUUCACUGAAGAUUUUUUCUUUGUGCAUUGCUGACUGUUCAAAUGGAAUUCUCGGGUGCCAA | 0.982 |
| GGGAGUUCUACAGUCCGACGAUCAGCCAAGUGAGGUCCCUGGAGGUUCAGGGCUUGGUGACGAGGUAGGCCGUGAUCACAUAUUCUACAGUCCAAAAGAGGGCCCGGAGCUCAGCAAUUACUCACGCCGUCACUGGAAUUCUCGGGUGCCAA | 0.44 |
| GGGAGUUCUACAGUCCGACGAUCUUUGUAGAUGAAAAAAAUCAUUAUGUUUAGAGGUCUAAUGCUAUGUUUUCAUAUUACAGAGUGAAUUUGUAUUUAAACAAAAAUUUAAAUUUUGGAAUCCUCUAAACAUUUGGAAUUCUCGGGUGCCAA | 0.472 |
| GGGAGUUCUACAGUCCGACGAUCCCAAAUUGGGACUAUUGAGAGAGAAAGGGGAUGCUAUUAAUUACACCAGAUCAAAAGGCAUAAACCAGACCUGUCCCAGGCCGAUGUGGAAAUAUGUUCUUUCUAGUUGUUGGAAUUCUCGGGUGCCAA | 0.322 |
| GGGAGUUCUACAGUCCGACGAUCCCAGGUACUGAGCGUCAGGCUCUGCAUAGCAGUUAAGCAGCACUGGUAGUGGUCUGCCGUGCAGGGGAUGCCUGCUAUGCAGGUGAUGCCCUCCCAGGAUCUAUUCCUGGUGGAAUUCUCGGGUGCCAA | 0.314 |

Sample 4 — method: RNA Bind-n-Seq; form: RNA; sample: in vitro; tested at: not given; reference: input RNA pool; direction: higher = stronger binding
Target: RING finger protein unkempt homolog, zinc fingers 1-6, GST-SBP tag (UNK, Homo sapiens, UniProt Q9C0B0, residues 30-357)
Notes: RNA with constant flanks, human and mouse sites, ends assumed
Construct (chain): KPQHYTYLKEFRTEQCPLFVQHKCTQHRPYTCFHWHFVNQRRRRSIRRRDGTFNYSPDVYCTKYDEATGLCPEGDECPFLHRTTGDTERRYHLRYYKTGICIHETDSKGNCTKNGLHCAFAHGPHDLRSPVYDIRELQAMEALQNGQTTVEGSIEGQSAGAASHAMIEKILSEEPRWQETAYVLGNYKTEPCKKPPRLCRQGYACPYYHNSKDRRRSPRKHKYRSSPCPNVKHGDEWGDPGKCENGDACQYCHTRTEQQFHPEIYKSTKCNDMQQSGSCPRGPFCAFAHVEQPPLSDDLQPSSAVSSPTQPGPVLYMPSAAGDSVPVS
| Sequence | bound/input enrichment [ratio] |
| --- | --- |
| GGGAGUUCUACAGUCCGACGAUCCAAUCUAGAAAUUUUGAAUACCAUGAGGAAAGACAUUUCCAUGGGCACUAUGACCCUGAAUAUAGACAUGAUCAACAAAGACCCUUUACUUGGAGAAUGGAUGAUGAAAAACAUGGACAACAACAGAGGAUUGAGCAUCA | 4.8 |
| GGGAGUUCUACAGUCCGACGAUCAGCCAGUCCCUAGGGCUCAGGGAGCAGGAGCUUCAGGUUGUCCGAGCAUCUGGGAAGUAAGUGGUAGGGGUGACAGGAAGCUAGGAGUACAGGCAUCCAUCUGUGGUGGGGAAACAGCUGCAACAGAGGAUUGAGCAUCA | 0.246 |
| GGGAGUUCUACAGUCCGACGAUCUUUAAAGGUUUUUUUUUUUUAAUUUAAUUUUUCCUUUUGGGGGUAAAGUUUGCUCUACCAAAUAGUGAUUGUAACAAAUUGAUCUGUUUUGGAUGUUGCUAUAGUGACAUGCAGUUAUAUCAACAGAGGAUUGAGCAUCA | 8.36 |
| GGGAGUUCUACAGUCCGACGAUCAAAAGAGCUAAUCCUCAAGUCGGCGUGGCUUUUCCUCAUAUCAAGCAUAACUAUGAGUGUUUAGUGUAUGUGCAGCUGCCUUUCAUGGAAGACUUGCGGCAAUACAUGUUUUCAUCCUUGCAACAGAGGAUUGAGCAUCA | 0.0515 |
| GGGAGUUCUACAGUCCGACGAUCGGUUUUAUACACACCAGUUCCCCAGUAAAUGCAAAUUUAACAAGAAAAUCAGACAUGUCAUAUGUUCAAAAUGCUCAUGGCAAACAAUCAUUUUGCAUUCCUGCAAAUAAAAUUGUUUUACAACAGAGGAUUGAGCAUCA | 0.452 |
| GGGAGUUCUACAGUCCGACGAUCUACAUGGGCUCACAGAAACAAUUUAAAAUUACUAAACUUUCACCAGCAAUGGGCUGUAAAUUCAGACUAUCGGCCAGAAAUGACUAUGGUACAAGUGGUUUUAGUGAAGAAGUCUUAUAUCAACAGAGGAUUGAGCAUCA | 0.275 |
| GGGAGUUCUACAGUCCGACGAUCUACGCAGAGCGCUAUGAGACAUGGGAGGAGGAUCAAAGCCCACCCUUCCACUACAACACACAUUACUCAACGGCGACUUCCGCCCUGUCAUGGCUUGUUCGGAUUGAGCCAUUCACAACCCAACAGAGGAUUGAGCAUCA | 0.175 |
| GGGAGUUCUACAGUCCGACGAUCAUUAGGGAACUGGAACAAGCCAAUGAUGACCUGGAAAGAGCCAAACGAGCCACAAUCAUGUCCCUGGAAGACUUUGAGCAGCGUUUGAAUCAAGCCAUUGAAAGAAAUGCCUUCCUAGAGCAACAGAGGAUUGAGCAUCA | 0.235 |
| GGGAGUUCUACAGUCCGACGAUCAGAUGCAGAGCCAGGCCCCCUGGAAGAGCUUGCAGCAACCCCUCCUUCCUUCAGUUUCAACUAGACUUCUAUCAAGUCUACUUUCUGGCCCUGGCAGCGGACUGGCUCCAAGCUCCCUACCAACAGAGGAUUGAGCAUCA | 0.147 |
| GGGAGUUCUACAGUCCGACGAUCACUAUUGUUAAAAUGAACUGUUGCUAUUGUGAGAUGGAUUUCCUUUCGAAUGGCACUACCUUAGGGACAUUCUAGUAUUGCUUCUAUUGUUUGGGCAUUGUGGAUAAUGUACAGAUUUAACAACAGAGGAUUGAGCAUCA | 0.372 |
| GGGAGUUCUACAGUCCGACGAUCUGGCCAGAACUAAAGGAGUCCAUUCCAGUGAUUAAUGGAAGAGAUUUACAGAACCCUAUUAUUGUUCAACUUUGUGAUCAGUGGGAUAAUCCAGCACCGGUACAACAUGUUAAAAUAAGUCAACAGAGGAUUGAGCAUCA | 0.173 |

Single results of other studies
| Molecule | target | test | test system | conditions | how to read | quantity | result |
| --- | --- | --- | --- | --- | --- | --- | --- |
| PhoQ, residues 284 288 289 292 302 303 ALAMYF | PhoP, residues 12 14 15 18 19 LQHIR (Escherichia coli, UniProt P23836) | Sort-seq, item: YFP reporter | E. coli | PhoQ-PhoP variant library, with: 10 µM Mg2+ | reference: high Mg2+ state, higher = stronger signaling | fold induction | 30.8 |

Repeated from above (sample 1):
| Change | normalised enrichment score |
| --- | --- |
| ASKSRQQLFKDDP [V6Q] | -0.712 |
| ASKSAVQLFKDDP [R5A] | 0.328 |
| ASNSRVQLFKDDP [K3N] | -0.32 |
| ASKSRVQLFKDFP [D12F] | -0.253 |
| ASKSRVQFFKDDP [L8F] | -0.00701 |
| ASKSRVFLFKDDP [Q7F] | 0.489 |
| ASLSRVQLFKDDP [K3L] | 0.148 |
| ASASRVQLFKDDP [K3A] | 0.217 |
| ASKSRVQTFKDDP [L8T] | 0.303 |
